# Results from different studies.
# Compare with care: the assays were run in different laboratories.
Compound,cell line,assay,setting,scale,measurement,result
CNS(=O)(=O)Nc1nccc(Cc2c(C)c3ccc(Oc4ncccc4F)cc3oc2=O)c1F,MC116,cell viability,7 days,,IC50,> 1000 nM
CCN(CC)CC(=O)Nc1cccc(-n2cc(-c3ccc4ccc(-c5cn(-c6cccc(NC(=O)CN(CC)CC)c6)nn5)cc4c3)nn2)c1,RCC4,"PCR angiogenesis array, measured: CCL11","5 x IC50, 2 h, normoxia",baseline: untreated,fold regulation,1.71
CCOc1cncc(-c2ccc(NC(=O)C3(c4ccnc(NS(=O)(=O)C5CC5)n4)CCOCC3)nc2)n1,YAPC,"cell growth or viability, ATP luminescence",72 h,,IC50,706 nM
CC(C)c1ccc(N(C)c2ccc3c(c2)OCC[C@H]3CNc2cnccc2C(=O)O)cc1,MM1.S,cell proliferation,168 h,,IC50,9 nM
Cn1ncc2cc(-c3cncc(Cl)c3N3CCC4(CCNC4=O)CC3)ccc21,LS174T,"gene expression, microarray, measured: LDB2 mRNA","concentration not given, 24 h",baseline: untreated cells,log2 fold change,2.04
Cc1ncsc1-c1ccc(C(C)NC(=O)C2CC(O)CN2C(=O)C(NC(=O)CCCCCCCCCCN2CCCC(Nc3ncc(Cl)c(Nc4ccccc4S(=O)(=O)C(C)C)n3)C2)C(C)(C)C)cc1 (centres unmarked),22Rv1,"RNA-seq, measured: TOE1 mRNA",concentration not given,baseline: DMSO,log2 fold change,-1.14
CN1CCCNC(=O)c2cccc(c2)C(=O)NCCCN(C)CCCNc2cccc3c2C(=O)c2cccc(c2C3=O)NCCC1,SAS,"RNA-Seq, measured: UBFD1 mRNA","1 µM, 6 h",baseline: untreated cells,log2 fold change,-0.612
CO[C@@H]1[C@@H](OC(N)=O)[C@@H](O)[C@H](Oc2ccc3c(O)c(NC(=O)c4ccc(O)c(CC=C(C)C)c4)c(=O)oc3c2C)OC1(C)C,DLD-1 BRCA2-/-,,"75 µM, replicate B",baseline: untreated,colony survival,39.1%

# A few entries again:
Compound,cell line,assay,setting,scale,measurement,result
CCN(CC)CC(=O)Nc1cccc(-n2cc(-c3ccc4ccc(-c5cn(-c6cccc(NC(=O)CN(CC)CC)c6)nn5)cc4c3)nn2)c1,RCC4,"PCR angiogenesis array, measured: CCL11","5 x IC50, 2 h, normoxia",baseline: untreated,fold regulation,1.71
